Measurements gathered from unrelated publications.
Compare with care: the assays were run in different laboratories. Numbers after ± are the reported error.

`Cc1ccc(Cl)cc1NC(=O)c1cc(-c2cccc(O)c2)on1` gave an EC50 of over 100 µM (membrane potential, rhodamine uptake; isolated mouse liver mitochondria).
For `Cc1ccc2nc(-c3ccc4nc(-c5ccc6nc(-c7ccc8nc(-c9ccc(N)cc9)sc8c7)sc6c5)sc4c3)sc2c1S(=O)(=O)O`, the EC50 was 15 ± 8 µM (DNA binding, SYBR Green I displacement; DNA substrate).
For `CCCCCC(O)C=CC1OC2OC(C1CC=CCCCC(=O)O)C2(F)F` (stereo not drawn), the EC50 was 0.501 µM (platelet aggregation, agonist, light transmission aggregometry; human platelet-rich plasma).
`Cc1ccc2nc(-c3ccc(N)cc3)sc2c1S(=O)(=O)O` has an EC50 of over 100 µM (DNA binding, SYBR Green I displacement; DNA substrate).
For `CC(C)C1=C(OC(=O)C(C)(C)C)C(=O)C2=C(C=C[C@H]3C(C)(C)CCC[C@]23C)C1=O`, the EC50 was 480 µM (total antioxidant capacity, phosphomolybdenum method).
For `N.N.[Cl][Pt+].c1ccc2c(c1)cnc1ccccc12`, the EC50 was 8.8 µM (DNA damage, gel electrophoresis; pUC19 plasmid DNA; 16 h, 37 °C).
`CC(C)C1=C(OC(=O)CCc2ccccc2)C(=O)C2=C(C=C[C@H]3C(C)(C)CCC[C@]23C)C1=O` gave an EC50 of 457 µM (total antioxidant capacity, phosphomolybdenum method).
`Cc1cccc(C)c1NC(=O)c1cc(-c2cccc(O)c2)on1` has an EC50 of over 100 µM (membrane potential, rhodamine uptake; isolated mouse liver mitochondria).
For `CCCCC[C@H](O)/C=C/[C@@H]1[C@@H](C/C=C\CCCC(=O)O)[C@H]2CO[C@@H]1C2`, the EC50 was 1.41 µM (platelet aggregation, agonist, light transmission aggregometry; human platelet-rich plasma).
`CC(=O)Nc1ccc(C(N)=O)c(F)c1` has an EC50 of over 37.5 µM (aPTT clotting time; human plasma; 50% prolongation).
`Cl.[Cl][Ru-4]123([n+]4ccccc4-c4cccc([n+]41)-c1cccc[n+]12)[n+]1ccc(-c2ccccc2)c2ccc4c(-c5ccccc5)cc[n+]3c4c21` has an EC50 of 21.9 µM (DNA damage, gel electrophoresis; pUC19 plasmid DNA; 16 h, 37 °C).
With `COC(=O)C=CCCC(NC(=O)c1ccncc1C(=O)O)C(=O)NC(C(=O)N1CC(=O)CC1C(=O)NC(C(=O)NC(C(N)=O)C1CCCCC1)C1CCCCC1)C(C)(C)C` (stereo not drawn) the EC50 was 1.7 ± 0.2 µM (maximum clot firmness reduction, rotational thromboelastometry; human whole blood; together with: 0.02 µg/mL t-PA).
